Experimental data of several laboratories.
Every numbered part comes from another study and shows a few of its results, in no order. Positions count from the first letter of the parent shown.

Block 1
Target: Probable WRKY transcription factor 50, DNA-binding domain (WRKY50, Arabidopsis thaliana, UniProt Q8VWQ5, residues 99-173)
Method: DNA-protein interaction ELISA
Form: double-stranded DNA, one strand shown
Medium: in vitro, bacterial lysate
Concentration: not given
Setting: whole dsDNA probe, crude lysate protein
Baseline: highest signal in screen
Reading: higher = stronger binding
Target sequence (chain): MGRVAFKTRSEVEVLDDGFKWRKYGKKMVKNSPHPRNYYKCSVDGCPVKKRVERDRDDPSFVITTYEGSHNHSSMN
Sequence	relative absorbance
AAAAAATGGGGCTCTGGCCCACCGTAAAAA	22.3 % of maximum
AAAAAATGGATCTTTACTTTAGGCCAAAAA	49 % of maximum
AAAAAACCGAGTGTTGCCAGTTGCAGAAAA	14.4 % of maximum
AAAAAACTAGGTATCGGTAGGCGCCGAAAA	14.2 % of maximum
AAAAAATTAGTCCTGATTCAATCTTCAAAA	48.8 % of maximum
AAAAAATTCTTACTTTTGTCTTTACTAAAA	62.3 % of maximum

Block 2
Target: CCNF, cyclin fold, Cln2 fusion (human)
Method: yeast growth competition, sequencing
Medium: yeast
Setting: weak parent motif
Baseline: not given
Reading: higher = stronger binding
Starting sequence: PKN2 docking peptide (human); VSAVQKLDFSDTM
Variant	normalised enrichment score
VFAVQKLDFSDTM [S2F]	1.02
VSAVQKLDYSDTM [F9Y]	0.265
VSAVQKLDFTDTM [S10T]	0.916
VSAVQKHDFSDTM [L7H]	0.132
VSAVQKLGFSDTM [D8G]	0.377

Block 3
Target: TATA-box-binding protein 1 (TBP1, Arabidopsis thaliana, UniProt P28147, residues 1-200, full length assumed)
Method: protein-binding microarray
Form: double-stranded DNA, one strand shown
Medium: in vitro
Concentration: not given
Setting: k-mer, scored over probes, only values ≥0.25
Reading: higher = stronger binding
Target sequence (chain): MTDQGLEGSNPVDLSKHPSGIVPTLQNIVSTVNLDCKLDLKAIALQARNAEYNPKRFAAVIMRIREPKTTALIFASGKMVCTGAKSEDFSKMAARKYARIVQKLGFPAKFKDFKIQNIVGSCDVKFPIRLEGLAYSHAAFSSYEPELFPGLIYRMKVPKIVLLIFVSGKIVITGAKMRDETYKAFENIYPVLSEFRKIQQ
Sequence	E-score
AATAAGA	0.286
GGATATA	0.41
AAGTAAA	0.31
ACATATG	0.271
ATTTATG	0.391
AAAAACA	0.274
AAACATA	0.275
ATATCAT	0.369

Single results of other studies
Molecule	target	assay	system	setting	how to read	measurement	value
PhoQ, residues 284 288 289 292 302 303 TTSMTC	PhoP, residues 12 14 15 18 19 NMSSL (Escherichia coli, UniProt P23836)	Sort-seq, refers to: YFP reporter	E. coli	PhoQ-PhoP variant library, with: 10 µM Mg2+	baseline: high Mg2+ state, higher = stronger signaling	fold induction	9.22

Some of these lines once more (block 3):
Sequence	E-score
ACATATG	0.271
ATTTATG	0.391
